Results gathered from unrelated publications.
Numbered parts are unrelated; each lists some results of a single study.
Chain of UniProt P10721 (whole entry, unmodified, looked up): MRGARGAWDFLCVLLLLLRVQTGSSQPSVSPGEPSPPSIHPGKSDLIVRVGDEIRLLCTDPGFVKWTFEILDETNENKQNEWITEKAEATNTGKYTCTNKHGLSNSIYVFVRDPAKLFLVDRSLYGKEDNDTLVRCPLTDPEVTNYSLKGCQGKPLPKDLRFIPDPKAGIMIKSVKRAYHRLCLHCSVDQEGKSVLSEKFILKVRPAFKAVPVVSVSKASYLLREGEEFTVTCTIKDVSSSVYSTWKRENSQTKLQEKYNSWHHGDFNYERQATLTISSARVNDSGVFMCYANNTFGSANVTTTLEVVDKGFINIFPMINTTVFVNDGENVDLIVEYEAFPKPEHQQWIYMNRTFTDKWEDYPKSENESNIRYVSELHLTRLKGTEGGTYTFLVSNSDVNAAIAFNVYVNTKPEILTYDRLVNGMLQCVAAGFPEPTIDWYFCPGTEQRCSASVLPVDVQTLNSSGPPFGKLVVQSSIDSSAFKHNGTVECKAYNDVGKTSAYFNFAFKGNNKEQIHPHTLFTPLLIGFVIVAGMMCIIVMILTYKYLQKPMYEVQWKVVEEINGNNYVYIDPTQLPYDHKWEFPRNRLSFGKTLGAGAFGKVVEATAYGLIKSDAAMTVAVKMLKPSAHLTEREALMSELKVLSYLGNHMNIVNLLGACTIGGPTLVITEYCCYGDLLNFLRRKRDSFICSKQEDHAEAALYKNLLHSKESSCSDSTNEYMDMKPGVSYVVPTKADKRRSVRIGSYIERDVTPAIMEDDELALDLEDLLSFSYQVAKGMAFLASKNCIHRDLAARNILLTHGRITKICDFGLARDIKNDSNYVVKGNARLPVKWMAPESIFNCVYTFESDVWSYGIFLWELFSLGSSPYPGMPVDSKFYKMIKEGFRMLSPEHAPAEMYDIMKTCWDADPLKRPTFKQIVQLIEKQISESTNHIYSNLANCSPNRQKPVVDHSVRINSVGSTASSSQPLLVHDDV
Chain of UniProt Q9UM73 (whole entry, unmodified, looked up): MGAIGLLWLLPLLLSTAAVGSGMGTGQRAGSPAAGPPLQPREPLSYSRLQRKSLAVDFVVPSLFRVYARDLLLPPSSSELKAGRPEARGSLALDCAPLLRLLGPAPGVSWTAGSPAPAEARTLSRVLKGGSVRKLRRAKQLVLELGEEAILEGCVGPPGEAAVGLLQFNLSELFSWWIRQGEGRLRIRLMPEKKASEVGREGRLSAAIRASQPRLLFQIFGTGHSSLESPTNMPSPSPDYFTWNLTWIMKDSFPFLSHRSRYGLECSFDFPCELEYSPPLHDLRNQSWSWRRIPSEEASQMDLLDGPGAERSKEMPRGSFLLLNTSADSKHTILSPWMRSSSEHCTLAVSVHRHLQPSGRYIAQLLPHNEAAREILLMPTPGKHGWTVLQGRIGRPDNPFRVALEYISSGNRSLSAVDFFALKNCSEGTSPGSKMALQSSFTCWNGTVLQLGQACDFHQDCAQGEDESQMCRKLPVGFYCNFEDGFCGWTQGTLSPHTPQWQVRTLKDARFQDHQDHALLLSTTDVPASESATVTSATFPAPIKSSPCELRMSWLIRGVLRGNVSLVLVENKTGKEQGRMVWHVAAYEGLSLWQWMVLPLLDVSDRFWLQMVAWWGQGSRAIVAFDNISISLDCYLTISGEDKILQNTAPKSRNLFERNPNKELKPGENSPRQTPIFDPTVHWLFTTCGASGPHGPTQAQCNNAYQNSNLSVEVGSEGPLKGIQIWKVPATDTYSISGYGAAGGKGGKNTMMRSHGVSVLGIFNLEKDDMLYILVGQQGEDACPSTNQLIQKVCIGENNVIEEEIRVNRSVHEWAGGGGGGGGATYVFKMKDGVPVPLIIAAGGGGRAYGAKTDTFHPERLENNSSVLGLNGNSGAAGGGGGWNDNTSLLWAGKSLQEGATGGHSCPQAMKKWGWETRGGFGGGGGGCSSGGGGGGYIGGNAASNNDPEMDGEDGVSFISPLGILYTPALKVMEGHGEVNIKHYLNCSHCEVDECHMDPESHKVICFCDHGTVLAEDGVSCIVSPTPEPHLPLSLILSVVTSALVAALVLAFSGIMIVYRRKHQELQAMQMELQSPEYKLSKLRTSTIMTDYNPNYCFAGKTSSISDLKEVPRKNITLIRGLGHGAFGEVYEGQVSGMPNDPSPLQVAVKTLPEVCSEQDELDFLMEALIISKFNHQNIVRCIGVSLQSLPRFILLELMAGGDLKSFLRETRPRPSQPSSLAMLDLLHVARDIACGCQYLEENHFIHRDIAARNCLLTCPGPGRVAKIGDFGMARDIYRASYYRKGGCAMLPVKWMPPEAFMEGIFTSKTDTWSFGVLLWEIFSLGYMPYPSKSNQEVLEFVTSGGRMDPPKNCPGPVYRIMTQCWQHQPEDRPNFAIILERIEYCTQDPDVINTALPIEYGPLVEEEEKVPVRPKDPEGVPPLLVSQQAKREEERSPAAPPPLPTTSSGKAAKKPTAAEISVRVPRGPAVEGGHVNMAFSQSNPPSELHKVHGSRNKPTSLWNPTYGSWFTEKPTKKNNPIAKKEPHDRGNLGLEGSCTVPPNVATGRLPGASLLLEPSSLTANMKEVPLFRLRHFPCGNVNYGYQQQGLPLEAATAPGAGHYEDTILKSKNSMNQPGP
Chain of UniProt P51955 (whole entry, looked up): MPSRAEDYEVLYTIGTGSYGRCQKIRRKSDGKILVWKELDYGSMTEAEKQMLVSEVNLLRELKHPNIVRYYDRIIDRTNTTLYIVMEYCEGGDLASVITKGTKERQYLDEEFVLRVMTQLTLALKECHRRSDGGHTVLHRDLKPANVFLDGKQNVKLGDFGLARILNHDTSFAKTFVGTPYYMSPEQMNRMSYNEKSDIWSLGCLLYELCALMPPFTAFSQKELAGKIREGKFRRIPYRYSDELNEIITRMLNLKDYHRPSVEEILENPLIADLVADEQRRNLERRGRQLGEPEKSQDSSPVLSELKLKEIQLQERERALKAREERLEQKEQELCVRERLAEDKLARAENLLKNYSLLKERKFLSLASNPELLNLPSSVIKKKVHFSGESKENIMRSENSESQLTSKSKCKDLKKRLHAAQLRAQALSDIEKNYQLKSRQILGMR
Chain of UniProt O75676 (whole entry, looked up): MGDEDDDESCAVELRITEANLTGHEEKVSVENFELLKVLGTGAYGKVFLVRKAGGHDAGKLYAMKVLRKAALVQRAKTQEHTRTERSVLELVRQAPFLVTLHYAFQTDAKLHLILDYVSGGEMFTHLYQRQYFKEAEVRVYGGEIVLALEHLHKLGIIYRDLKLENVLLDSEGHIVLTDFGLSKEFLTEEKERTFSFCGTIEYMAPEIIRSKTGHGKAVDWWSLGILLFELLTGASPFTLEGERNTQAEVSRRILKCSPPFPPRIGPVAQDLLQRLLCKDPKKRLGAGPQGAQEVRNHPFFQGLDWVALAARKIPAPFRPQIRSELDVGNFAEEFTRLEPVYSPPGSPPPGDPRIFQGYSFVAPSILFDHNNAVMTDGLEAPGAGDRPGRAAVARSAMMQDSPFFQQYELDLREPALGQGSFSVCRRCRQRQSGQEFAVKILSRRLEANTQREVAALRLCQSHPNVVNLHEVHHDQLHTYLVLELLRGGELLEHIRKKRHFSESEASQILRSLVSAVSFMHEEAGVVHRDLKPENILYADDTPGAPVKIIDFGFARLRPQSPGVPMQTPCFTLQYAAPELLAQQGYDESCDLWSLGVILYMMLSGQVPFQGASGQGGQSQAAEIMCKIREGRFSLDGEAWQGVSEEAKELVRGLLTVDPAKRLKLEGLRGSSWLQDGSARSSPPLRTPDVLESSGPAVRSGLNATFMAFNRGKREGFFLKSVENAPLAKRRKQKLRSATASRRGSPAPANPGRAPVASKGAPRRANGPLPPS
Chain of UniProt P42336 (whole entry, unmodified, looked up): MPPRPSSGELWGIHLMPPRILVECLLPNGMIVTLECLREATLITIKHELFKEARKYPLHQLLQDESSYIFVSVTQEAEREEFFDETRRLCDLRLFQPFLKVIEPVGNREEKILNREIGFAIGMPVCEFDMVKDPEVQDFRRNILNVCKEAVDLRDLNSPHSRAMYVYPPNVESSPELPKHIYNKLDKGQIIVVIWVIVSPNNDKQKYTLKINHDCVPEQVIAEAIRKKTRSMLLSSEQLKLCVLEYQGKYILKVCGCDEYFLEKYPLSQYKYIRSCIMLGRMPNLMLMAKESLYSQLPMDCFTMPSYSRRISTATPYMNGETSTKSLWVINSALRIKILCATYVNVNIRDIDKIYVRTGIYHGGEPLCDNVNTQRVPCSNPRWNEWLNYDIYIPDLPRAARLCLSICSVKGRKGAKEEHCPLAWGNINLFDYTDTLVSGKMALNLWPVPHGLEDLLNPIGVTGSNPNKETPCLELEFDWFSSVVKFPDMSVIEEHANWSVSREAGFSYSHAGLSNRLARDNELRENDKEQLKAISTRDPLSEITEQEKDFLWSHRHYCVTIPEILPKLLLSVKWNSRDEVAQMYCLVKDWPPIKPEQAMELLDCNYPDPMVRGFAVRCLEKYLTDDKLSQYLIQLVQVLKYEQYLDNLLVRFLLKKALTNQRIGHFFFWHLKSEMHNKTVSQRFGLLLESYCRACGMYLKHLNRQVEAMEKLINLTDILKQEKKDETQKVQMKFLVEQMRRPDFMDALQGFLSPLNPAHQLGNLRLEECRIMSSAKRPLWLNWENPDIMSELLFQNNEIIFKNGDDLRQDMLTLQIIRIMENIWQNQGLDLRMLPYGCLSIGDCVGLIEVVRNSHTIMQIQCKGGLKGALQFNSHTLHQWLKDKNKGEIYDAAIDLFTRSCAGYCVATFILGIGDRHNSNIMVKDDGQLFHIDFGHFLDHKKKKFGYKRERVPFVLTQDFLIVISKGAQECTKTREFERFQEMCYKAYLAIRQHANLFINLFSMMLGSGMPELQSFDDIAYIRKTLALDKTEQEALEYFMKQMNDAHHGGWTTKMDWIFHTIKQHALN

Set 1 — method: LC-MS/MS; host: human; sample: plasma; route: oral
SMILES: COc1ccc(-c2c(Nc3ccccn3)[nH]c3c(C4=CCCCC4)c(-c4ccccc4)nn3c2=O)cc1
The Tlag was 0 h (100 mg once daily).
150 mg once daily — Tlag: 0 h.
For 50 mg once daily: Tlag read 0 h.

Set 2 — host: mouse; sample: microsomes or S9; concentration: 2 µM; time: 0.5 h
With Cc1sc(C(=O)O)cc1S(=O)(=O)N1CCCC2(CCS(=O)(=O)C2)C1 (stereo not drawn) the remaining compound was 58%.
The remaining compound of COCC(=O)NC(c1ccccc1)c1ccccc1 is reported as 13.6%.
With Clc1ccc(CCN2CCN(Cc3nc[nH]n3)CC2)cc1Cl the remaining compound was 94.8%.
Cc1n[nH]c(-c2ccc(O)cc2O)c1Oc1ccc(Cl)cc1 gave a remaining compound of 66.8%.
With CCOc1ccc(Nc2ncc(F)c(Nc3ccc(OCC)cc3)n2)cc1 the remaining compound was 1.06%.
For CC(=O)N1CCC2(CC1)OC(=O)C(C)=C2C(=O)N1CCN(C)CC1, the remaining compound was 82.9%.
O=C(NCc1cccnc1)c1c(OCC2CC2)cc(=O)n2c1CCOCC2 has a remaining compound of 74%.

Set 3 — cell line: mouse MPNST tumor cells; method: high-content nuclear imaging; item: cell number; concentration: 10 µM; time: 12 h; notes: mean of 2 replicates; reference: plate mean; direction: higher = more cells
Cc1nnc(C(=O)NC(C)(C)c2nc(C(=O)NCc3ccc(F)cc3)c(O)c(=O)n2C)o1 gave a nuclei count of 1.42 z-score.
The nuclei count of COc1ccc(C2CC(c3c(O)cc(C)oc3=O)=NCCS2)c(OC)c1 (stereo not drawn) is reported as -5.21 z-score.
Cc1ccc2cccc(NC(=O)c3ccc(OC(C)C)cc3)c2n1 has a nuclei count of 1.51 z-score.
For O=C(O)C1CCCN(CCC=C(c2ccccc2)c2ccccc2)C1 (stereo not drawn), the nuclei count was 0.195 z-score.
With C[N+](C)(CCOc1ccccc1)Cc1ccccc1.O=C([O-])c1cc2ccccc2cc1O the nuclei count was 0.045 z-score.

Set 4 — cell line: HaCaT; concentration: 100 µM; time: 36 h
For Cc1cn([C@H]2C=C[C@@H](CO)O2)c(=O)[nH]c1=O, the viability was 107%.
CC(=O)SCC(Cc1ccccc1)C(=O)NCC(=O)OCc1ccccc1 (stereo not drawn) gave a viability of 107%.
With CC(=O)Nc1ccccc1 the viability was 86.1%.
C[n+]1cc2c3c(ccc2c2ccc4cc5c(cc4c21)OCO5)OCO3 gave a viability of 4.46%.
C[C@H]1[C@H](NC(=O)/C(=N\OC(C)(C)C(=O)O)c2csc(N)n2)C(=O)N1S(=O)(=O)O has a viability of 97.3%.
CNC1(C)C2CCC(C2)C1(C)C (stereo not drawn) has a viability of 87%.
CCCCC(CC)COC(=O)CC(C(=O)OCC(CC)CCCC)S(=O)(=O)O (stereo not drawn) has a viability of 12.1%.

Set 5 — observed: cell-free assay; method: competition with immobilised ligand; concentration: 0.1 µM
Structure (SMILES): Cn1nc(C(=O)NCc2ccc(C(=O)O)cc2)cc1-c1ccc2[nH]ccc2c1
Ribosomal protein S6 kinase alpha-3, N-terminal kinase domain (RPS6KA3, Homo sapiens, UniProt P51812) — remaining binding: 78%.
It gave 87% for remaining binding (EPHB1 (Homo sapiens, UniProt P54762)).
It gave 77% for remaining binding (PIK3CA (Homo sapiens, UniProt P42336, E545A)).
RIPK4 (Homo sapiens, UniProt P57078) — remaining binding: 68%.
It gave 90% for remaining binding (KIT (Homo sapiens, UniProt P10721, V559D)).
For PLK3 (Homo sapiens, UniProt Q9H4B4): remaining binding read 94%.
It gave 73% for remaining binding (Ribosomal protein S6 kinase alpha-4, N-terminal kinase domain (RPS6KA4, Homo sapiens, UniProt O75676)).
The remaining binding was 92% (EGFR (Homo sapiens, UniProt P00533, L858R/T790M)).
ALK (Homo sapiens, UniProt Q9UM73, C1156Y) — remaining binding: 65%.
It gave 65% for remaining binding (HUNK (Homo sapiens, UniProt P57058)).
For NEK2 (Homo sapiens, UniProt P51955): remaining binding read 95%.
MYLK4 (Homo sapiens, UniProt Q86YV6) — remaining binding: 76%.
CDK4 (Homo sapiens, UniProt P11802) — remaining binding: 84%.
The remaining binding was 91% (MAPK13 (Homo sapiens, UniProt O15264)).
FLT3 (Homo sapiens, UniProt P36888, D835H) — remaining binding: 46%.
The remaining binding was 90% (Mast/stem cell growth factor receptor Kit, autoinhibited (KIT, Homo sapiens, UniProt P10721)).
For MAPK10 (Homo sapiens, UniProt P53779): remaining binding read 76%.
It gave 23% for remaining binding (PAK2 (Homo sapiens, UniProt Q13177)).
It gave 80% for remaining binding (CLK1 (Homo sapiens, UniProt P49759)).
For PAK4 (Homo sapiens, UniProt O96013): remaining binding read 86%.

A few entries again (set 2):
The remaining compound of COCC(=O)NC(c1ccccc1)c1ccccc1 is reported as 13.6%.
With Clc1ccc(CCN2CCN(Cc3nc[nH]n3)CC2)cc1Cl the remaining compound was 94.8%.
Cc1n[nH]c(-c2ccc(O)cc2O)c1Oc1ccc(Cl)cc1 gave a remaining compound of 66.8%.
With CCOc1ccc(Nc2ncc(F)c(Nc3ccc(OCC)cc3)n2)cc1 the remaining compound was 1.06%.
For CC(=O)N1CCC2(CC1)OC(=O)C(C)=C2C(=O)N1CCN(C)CC1, the remaining compound was 82.9%.
O=C(NCc1cccnc1)c1c(OCC2CC2)cc(=O)n2c1CCOCC2 has a remaining compound of 74%.
